# Published values gathered from unrelated publications.
# Lines come from different studies, so protocols differ. pKd: −log10 of the molar value.
SMILES,assay,system,setting,pKd
C[C@H](NC(=O)[C@H](CCC(N)=O)NC(=O)[C@H](C)NC(=O)[C@H](CCCCN)NC(=O)[C@H](CCC(N)=O)NC(=O)[C@H](C)NC(=O)[C@H](CCCCN)NC(=O)[C@H](CCC(N)=O)NC(=O)[C@H](C)NC(=O)[C@H](CCC(N)=O)NC(=O)[C@H](CCCCN)NC(=O)[C@H](C)NC(=O)[C@H](CCC(N)=O)NC(=O)[C@H](CCCCN)NC(=O)[C@H](C)NC(=O)[C@H](CCC(N)=O)NC(=O)[C@H](C)NC(=O)[C@H](CCCCN)NC(=O)[C@H](CCC(N)=O)NC(=O)[C@H](C)NC(=O)[C@H](CCCCN)NC(=O)[C@H](CO)NC(=O)[C@H](Cc1ccc(O)cc1)NC(=O)CNC(=O)CNC(=O)CN)C(=O)N[C@@H](CCCCN)C(=O)N[C@@H](CCC(N)=O)C(=O)N[C@@H](C)C(=O)N[C@@H](CCCCN)C(=O)N[C@@H](CCC(N)=O)C(=O)O,"binding, SPR Langmuir fit",rVλ6Wil fibrils,pH 7.4,8.43
CC(C)C[C@H](NC(=O)CNC(=O)[C@H](CCC(=O)O)NC(=O)[C@H](CCCCN)NC(=O)[C@H](CC(C)C)NC(=O)[C@H](C)NC(=O)[C@H](C)NC(=O)CNC(=O)[C@H](C)NC(=O)[C@H](CCCCN)NC(=O)[C@H](CCC(=O)O)NC(=O)[C@H](CC(C)C)NC(=O)[C@H](CCCCN)NC(=O)[C@H](CCCCN)NC(=O)[C@H](CC(C)C)NC(=O)[C@H](CC(C)C)NC(=O)[C@H](CCCCN)NC(=O)[C@H](Cc1c[nH]c2ccccc12)NC(=O)[C@@H](N)CCCCN)C(=O)N[C@@H](CC(C)C)C(=O)N[C@@H](CCCCN)C(=O)N[C@@H](C)C(=O)NCC(=O)N1CCC[C@H]1C(=O)N[C@@H](C)C(=O)N[C@@H](CC(C)C)C(=O)N[C@@H](C)C(=O)N[C@@H](CC(C)C)C(=O)N[C@@H](CC(C)C)C(=O)NCC(=O)N[C@@H](C)C(=O)N[C@@H](C)C(=O)N[C@@H](C)C(=O)N[C@@H](C)C(=O)N[C@@H](CC(C)C)C(=O)N[C@@H](C)C(=O)N[C@@H](CCCCN)C(N)=O,"membrane binding, stopped-flow FRET",POPC vesicles,"room temperature, extrapolated from POPC/POPG",2.33
CC[C@H](C)[C@H](N)C(=O)N[C@H](C(=O)NCC(=O)N[C@H](C(=O)N[C@H](C(=O)N[C@@H](CC(=O)O)C(=O)N[C@@H](CO)C(=O)N[C@@H](CC(C)C)C(=O)N[C@H](C(=O)N[C@@H](CCCCN)C(=O)N[C@@H](Cc1c[nH]c2ccccc12)C(=O)N[C@H](C(=O)N[C@H](C(=O)N[C@@H](CC(=O)O)C(=O)N[C@H](C(=O)N[C@H](C(=O)N[C@@H](CC(N)=O)C(=O)N[C@@H](CCCCN)C(=O)N[C@@H](Cc1ccccc1)C(=O)N[C@H](C(=O)N[C@@H](CCCCN)C(=O)N[C@@H](CCCCN)C(=O)O)[C@@H](C)O)C(C)C)[C@@H](C)O)[C@@H](C)CC)[C@@H](C)CC)C(C)C)[C@@H](C)CC)[C@@H](C)O)[C@@H](C)CC,lipid vesicle binding,POPC vesicles,pH 7.5,4.82
CC(C)C[C@H](NC(=O)CN)C(=O)NCC(=O)N[C@@H](CCCCN)C(=O)N[C@@H](CC(C)C)C(=O)N[C@@H](CC(C)C)C(=O)N[C@@H](Cc1c[nH]cn1)C(=O)N[C@@H](C)C(=O)N[C@@H](C)C(=O)N[C@@H](CCCCN)C(=O)N[C@@H](CCCCN)C(=O)N[C@@H](CC(C)C)C(=O)NCC(=O)N[C@@H](CCCCN)C(=O)N[C@@H](C)C(=O)N[C@@H](Cc1c[nH]c2ccccc12)C(=O)N[C@@H](CC(C)C)C(=O)NCC(=O)N[C@@H](CCC(=O)O)C(=O)N[C@@H](CC(C)C)C(=O)N[C@@H](CC(C)C)C(=O)N[C@@H](C)C(=O)N[C@@H](C)C(=O)O,"membrane binding, stopped-flow FRET",POPC vesicles,"room temperature, extrapolated from POPC/POPG",2.96
CC[C@@](C)(NC)C(=O)NC(C)(C)C(=O)NC(C)(C)C(=O)NC(C)(C)C(=O)NCC(=O)NC(C)(C)C(=O)N1CCC[C@@H]1C(=O)N[C@@H](Cc1c[nH]c2ccccc12)C(=O)NC(C)(C)C(=O)N1C[C@H](O)C[C@@H]1C(=O)N[C@@H](C)C(=O)NC(C)(C)C(=O)NCCCC(=O)N[C@@H](CC(C)C)C(=O)N[C@](C)(CC)C(=O)NC(C)(C)C(=O)N[C@](C)(CC)C(=O)N[C@H](CO)Cc1ccccc1,"binding, ITC",10 to 30% methanol,"2 °C, added: POPG",6.51
CC[C@H](C)[C@H](NC(=O)[C@H](CC(N)=O)NC(=O)[C@H](CCCCN)NC(=O)[C@@H](NC(=O)[C@@H](N)CC(C)C)[C@@H](C)CC)C(=O)NCC(=O)N[C@H](C(=O)N[C@H](C(=O)N[C@H](C(=O)N[C@@H](CO)C(=O)N[C@@H](CCCCN)C(=O)N[C@H](C(=O)N[C@H](C(=O)N[C@@H](CCCCN)C(=O)N[C@H](C(=O)N[C@H](C(=O)N[C@@H](Cc1c[nH]c2ccccc12)C(=O)N[C@@H](CCCCN)C(=O)N[C@@H](Cc1ccccc1)C(=O)N[C@H](C(=O)N[C@@H](CC(=O)O)C(=O)N[C@@H](CC(=O)O)C(=O)O)[C@@H](C)O)C(C)C)[C@@H](C)O)[C@@H](C)CC)[C@@H](C)CC)C(C)C)[C@@H](C)CC)[C@@H](C)O,lipid vesicle binding,POPC vesicles,pH 7.5,3.40
CC(C)[C@H](N)C(=O)N[C@@H](Cc1ccc(O)cc1)C(=O)N[C@@H](CCCCN)C(=O)N[C@H](C(=O)N[C@@H](CCCCN)C(=O)N[C@H](C(=O)N[C@@H](CCCCN)C(=O)N[C@H](C(=O)N[C@@H](CCCCN)C(=O)N[C@H](C(=O)N[C@@H](CCCCN)C(=O)N[C@H](C(=O)N[C@@H](CCCCN)C(=O)N[C@H](C(=O)N[C@@H](CCCCN)C(=O)N[C@H](C(=O)N[C@@H](CCCCN)C(=O)N[C@H](C(=O)O)[C@@H](C)O)C(C)C)[C@@H](C)O)C(C)C)[C@@H](C)O)C(C)C)[C@@H](C)O)C(C)C,"binding, SPR Langmuir fit",rVλ6Wil fibrils,pH 7.4,8.00
CC(C)C[C@H](NC=O)C(=O)N[C@@H](C)C(=O)N[C@@H](C)C(=O)N[C@@H](CC(=O)O)C(=O)N[C@@H](CC(C)C)C(=O)N[C@@H](CC(C)C)C(=O)N[C@@H](C)C(=O)N[C@@H](C)C(=O)N[C@@H](CC(C)C)C(=O)NCC(=O)N[C@@H](CC(=O)O)C(=O)N[C@@H](CC(C)C)C(=O)N[C@@H](C)C(=O)N[C@@H](CCCCN)C(=O)N[C@@H](Cc1c[nH]c2ccccc12)C(=O)N[C@@H](CC(C)C)C(=O)N[C@@H](CC(C)C)C(=O)N[C@@H](CC(=O)O)C(=O)N[C@@H](C)C(=O)N[C@@H](CC(C)C)C(=O)N[C@@H](C)C(=O)N[C@@H](CCCCN)C(=O)N[C@@H](C)C(=O)N[C@@H](C)C(=O)N[C@@H](CCCCN)C(=O)N[C@@H](CCCCN)C(=O)O (racemic),"membrane binding, stopped-flow FRET",POPC vesicles,"pH 7.5, room temperature",3.70
CC[C@H](C)[C@H](N)C(=O)N[C@H](C(=O)N[C@@H](CO)C(=O)N[C@H](C(=O)N[C@H](C(=O)NCC(=O)N[C@@H](CC(=O)O)C(=O)N[C@@H](CC(C)C)C(=O)N[C@H](C(=O)N[C@@H](CCCCN)C(=O)N[C@@H](Cc1c[nH]c2ccccc12)C(=O)N[C@H](C(=O)N[C@H](C(=O)N[C@@H](CC(=O)O)C(=O)N[C@H](C(=O)N[C@H](C(=O)N[C@@H](CC(N)=O)C(=O)N[C@@H](CCCCN)C(=O)N[C@@H](Cc1ccccc1)C(=O)N[C@H](C(=O)N[C@@H](CCCCN)C(=O)N[C@@H](CCCCN)C(=O)O)[C@@H](C)O)C(C)C)[C@@H](C)O)[C@@H](C)CC)[C@@H](C)CC)C(C)C)[C@@H](C)CC)[C@@H](C)O)[C@@H](C)CC,lipid vesicle binding,POPC vesicles,pH 7.5,5.34

# Excerpt of the above:
SMILES,assay,system,setting,pKd
CC(C)[C@H](N)C(=O)N[C@@H](Cc1ccc(O)cc1)C(=O)N[C@@H](CCCCN)C(=O)N[C@H](C(=O)N[C@@H](CCCCN)C(=O)N[C@H](C(=O)N[C@@H](CCCCN)C(=O)N[C@H](C(=O)N[C@@H](CCCCN)C(=O)N[C@H](C(=O)N[C@@H](CCCCN)C(=O)N[C@H](C(=O)N[C@@H](CCCCN)C(=O)N[C@H](C(=O)N[C@@H](CCCCN)C(=O)N[C@H](C(=O)N[C@@H](CCCCN)C(=O)N[C@H](C(=O)O)[C@@H](C)O)C(C)C)[C@@H](C)O)C(C)C)[C@@H](C)O)C(C)C)[C@@H](C)O)C(C)C,"binding, SPR Langmuir fit",rVλ6Wil fibrils,pH 7.4,8.00
